Results of several laboratories.
Parts stem from different laboratories: compare values within a part only. Changes are numbered by the printed parent chain.
Chain of UniProt P08588 (whole entry, looked up): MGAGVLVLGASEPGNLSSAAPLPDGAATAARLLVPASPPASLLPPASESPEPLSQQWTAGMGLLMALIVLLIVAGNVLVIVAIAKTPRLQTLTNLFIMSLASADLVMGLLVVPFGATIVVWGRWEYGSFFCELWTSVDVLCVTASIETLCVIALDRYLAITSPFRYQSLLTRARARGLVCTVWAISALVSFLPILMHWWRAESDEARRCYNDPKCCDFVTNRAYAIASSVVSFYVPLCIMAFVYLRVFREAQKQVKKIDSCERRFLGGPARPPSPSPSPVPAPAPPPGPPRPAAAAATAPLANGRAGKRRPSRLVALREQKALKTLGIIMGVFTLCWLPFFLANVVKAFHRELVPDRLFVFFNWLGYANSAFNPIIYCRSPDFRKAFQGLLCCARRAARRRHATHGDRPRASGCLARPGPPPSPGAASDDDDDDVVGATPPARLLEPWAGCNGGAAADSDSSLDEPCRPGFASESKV
Chain of UniProt Q6P2M8 (whole entry, looked up): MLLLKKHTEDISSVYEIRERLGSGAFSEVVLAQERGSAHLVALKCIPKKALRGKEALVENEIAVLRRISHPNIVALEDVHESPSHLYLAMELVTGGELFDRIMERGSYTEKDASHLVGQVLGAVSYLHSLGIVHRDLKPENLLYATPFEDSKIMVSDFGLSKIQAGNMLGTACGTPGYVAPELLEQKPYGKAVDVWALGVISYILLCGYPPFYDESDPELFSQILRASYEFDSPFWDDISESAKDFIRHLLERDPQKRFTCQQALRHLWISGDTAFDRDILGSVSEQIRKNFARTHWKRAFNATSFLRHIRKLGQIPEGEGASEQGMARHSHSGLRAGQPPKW
Chain of UniProt P28221 (whole entry, looked up): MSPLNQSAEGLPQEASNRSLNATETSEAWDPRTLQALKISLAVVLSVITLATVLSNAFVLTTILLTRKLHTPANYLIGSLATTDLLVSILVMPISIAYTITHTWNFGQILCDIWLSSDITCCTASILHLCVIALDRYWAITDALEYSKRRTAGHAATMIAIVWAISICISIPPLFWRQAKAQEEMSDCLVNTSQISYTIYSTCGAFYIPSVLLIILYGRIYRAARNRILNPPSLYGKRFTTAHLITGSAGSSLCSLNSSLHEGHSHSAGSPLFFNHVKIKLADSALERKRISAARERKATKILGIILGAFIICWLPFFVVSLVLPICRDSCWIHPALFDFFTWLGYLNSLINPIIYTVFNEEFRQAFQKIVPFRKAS

Sample 1
Target: CCNB3, cyclin fold, Cln2 fusion (human)
Method: yeast growth competition, sequencing
Matrix: yeast
Setting: weak parent motif
Relative to: not given
Direction: higher = stronger binding
Parent: PKN2 docking peptide (human); VSAVQKLDFSDTM; partner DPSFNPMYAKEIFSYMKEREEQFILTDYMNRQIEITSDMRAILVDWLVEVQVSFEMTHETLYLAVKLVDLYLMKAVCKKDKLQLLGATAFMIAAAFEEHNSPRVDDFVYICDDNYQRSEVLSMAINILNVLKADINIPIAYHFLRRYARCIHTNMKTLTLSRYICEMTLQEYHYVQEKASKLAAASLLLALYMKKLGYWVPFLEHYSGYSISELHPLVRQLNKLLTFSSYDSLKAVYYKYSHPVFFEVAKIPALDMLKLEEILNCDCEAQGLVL
Change | normalised enrichment score
S2G | 0.1
V4M | 0.344
D8L | 0.379
F9L | 0.111
L7K | 0.197
S10R | 0.152
D11I | -0.442
K6A | 0.116

Sample 2
Target: Histone acetyltransferase KAT6A, both winged helices, GST fusion (KAT6A, Homo sapiens, UniProt Q92794, residues 1-181)
Method: protein binding microarray
Molecule type: double-stranded DNA, one strand shown
Matrix: in vitro
Tested at: not given
Setting: 8-mer, flanks averaged, mean of 2 arrays, mostly near background
Relative to: not given
Direction: higher = stronger binding
Construct (chain): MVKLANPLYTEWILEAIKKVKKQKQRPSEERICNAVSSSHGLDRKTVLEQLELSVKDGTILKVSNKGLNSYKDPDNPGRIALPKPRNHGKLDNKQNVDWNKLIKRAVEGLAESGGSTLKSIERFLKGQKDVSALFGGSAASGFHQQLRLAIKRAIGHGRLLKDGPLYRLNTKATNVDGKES
Strand | E-score
ACAGTCGT | -0.00782
AGTCAATA | -0.0137
CAGATTGC | -0.0403
GCCACACA | -0.18
GTATGGAA | -0.12
TAAAGTCA | -0.165
CCGCCATA | 0.17
GCGCACAA | 0.287

Single results of other studies
Substance | target | assay | test system | conditions | how to read | endpoint | result
CCC(=O)N[C@H]1CC[C@@H](C(=O)N(C)c2ccc(-c3nc4ccccc4o3)cc2)C1 | ADRB1 (Homo sapiens, UniProt P08588) | binding, radioligand binding | – | 10 µM | – | inhibition | -4.07%
CCOc1cc2ncnc(Nc3cccc(Br)c3)c2cc1OCC | PNCK (Homo sapiens, UniProt Q6P2M8) | enzyme activity, inhibitor | – | 0.5 µM | relative to: control | remaining activity | 103%
CCCOc1ccc([C@H]2[C@H](C(=O)O)[C@@H](c3ccc4c(c3)OCO4)CN2CC(=O)Nc2c(CC)cccc2CC)cc1 | HTR1D (Homo sapiens, UniProt P28221) | binding, radioligand binding | – | 10 µM | – | inhibition | -3.09%
PhoQ, residues 284 288 289 292 302 303 SSTLSG | PhoP, residues 12 14 15 18 19 NQFFI (Escherichia coli, UniProt P23836) | Sort-seq, refers to: YFP reporter | E. coli | PhoQ-PhoP variant library, together with: 10 µM Mg2+ | relative to: high Mg2+ state, higher = stronger signaling | fold induction | 9.36

A few entries again (sample 2):
Strand | E-score
GCCACACA | -0.18
GCGCACAA | 0.287
GTATGGAA | -0.12
